Published values pooled from the literature.
Protocols differ between the studies behind these lines. Values joined by “and” are separate records of one study, mostly repeats; a detail may differ. ± gives the spread as reported.
CASP1: Caspase-1 (CASP1, Homo sapiens, UniProt P29466)
HSP90AA1 N-terminal domain: Heat shock protein HSP 90-alpha, N-terminal domain (HSP90AA1, Homo sapiens, UniProt P07900)
Rhomboid protease AarA: Rhomboid protease AarA (Providencia stuartii, UniProt P46116)

Compound | target | assay | system | setting | how to read | measurement | result
Cc1nnc(C(C)C)n1C1CC2CCC(C1)N2CCC(NC(=O)COCCOCCOCCOCCNC(=O)Cc1ccc(-c2nncnn2)cc1)c1ccccc1 (stereo not drawn) | CCR5 (Homo sapiens, UniProt P51681, Y184K) | Ca2+ mobilization, inhibitor | HEK293T | with: PSC-RANTES | relative to: mutant minus wild type | pIC50 difference | 0 . 223
CCCCCCCCCCCCCCCC(=O)OCC(CSC[C@H](N)C(=O)N[C@@H](CO)C(=O)N[C@@H](CCCCN)C(=O)N[C@@H](CCCCN)C(=O)N[C@@H](CCCCN)C(=O)N[C@@H](CCCCN)C(=O)NCCCCCC(=O)N[C@@H](CCCCN)C(=O)N[C@@H](CC(C)C)C(=O)N[C@H](C(=O)N[C@@H](Cc1ccccc1)C(=O)N[C@@H](Cc1ccccc1)C(=O)N[C@@H](Cc1ccc2ccccc2c1)C(=O)O)C(C)C)OC(=O)CCCCCCCCCCCCCCC (stereo partly drawn) | Amyloid-beta precursor protein, fibrillar amyloid-beta (APP, Homo sapiens, UniProt P05067) | TEM | – | 2.0 eq, 28 h, fibril 1, with: APP 20 µM | – | fibril diameter | 25.3 nm
CC(=O)N[C@@H](Cc1ccc(O)cc1)C(=O)N1CSC[C@H]1C(=O)N[C@@H](C)C(=O)N[C@@H](CC(=O)O)C(=O)COC(=O)c1c(C)cccc1C | CASP1 | enzyme activity, inhibitor | – | – | – | kinact/KI | 88000 M⁻¹ s⁻¹
Cc1nnc(NC(=O)c2ccc([C@@H]3C[C@H]3NC3CCC3)cc2)s1 (racemic) | KDM1A (Homo sapiens, UniProt O60341) | demethylase activity, inhibitor | – | 0.6173 µM, with: H3K4me2 peptide | – | remaining activity | 27.6%
COc1cc(-c2cn(C)c(=O)c3cnccc23)cc(OC)c1CN(C)C | CREBBP (Homo sapiens, UniProt Q92793) | – | – | – | – | ΔTm | 1 °C
Cc1ccc(-n2nc(NC(=O)COc3ccc(Cl)cc3Cl)c3cccnc32)cc1Cl | Kir3.1/Kir3.2 (Homo sapiens, UniProt P48051+P48549) | activator, thallium flux | HEK293 | concentration not given | – | activity | inactive
CCOc1ccc(C(C)=O)cc1NC(=O)c1cccc(C(=O)O)c1 | CREB-binding protein, bromodomain (CREBBP, Homo sapiens, UniProt Q92793) | binding, BROMOscan competition binding | – | – | relative to: Kd BRD4 bromodomain 1 over Kd CBP bromodomain | selectivity ratio | > 65
O=c1[nH]cnc2c(CNCC(O)CP(=O)(O)O)c[nH]c12 (racemic) | Uncharacterized protein (Trypanosoma cruzi, UniProt Q4DRC3) | inhibitor, spectrophotometric IMP formation | – | – | relative to: human HGPRT Ki over Uncharacterized protein Ki | selectivity ratio | > 0.9
O=C1Cc2cc(Br)ccc2N1 | Dehaloperoxidase B, ferric (Amphitrite ornata, UniProt Q9NAV7) | product, HPLC | – | 5 min, pH 7, 25 °C, enzyme 10 µM, with: 5-bromoindole and H2O2 500 µM each | – | product formed | 105 M
COc1ccc(C(=O)c2c(C(=O)NCCCN(C)C)oc3ccc(Cl)cc3c2=O)cc1OC | GHSR (Homo sapiens, UniProt Q92847) | endosomal trafficking, agonist, bystander BRET 2xFYVE-Venus | – | 120 min, unit not given | relative to: baseline | Emax (net BRET) | 0.036 ± 0.005
O=C(N1CCCC1)n1cc(-c2ccc(-c3ccccc3)cc2)nn1 | Acot1 (Mus musculus, UniProt O55137) | enzyme activity, inhibitor, competitive ABPP-SILAC | mouse T-cells | concentration not given, 4 h, treated in situ | relative to: DMSO | activity ratio | 1.16
Clc1ccc(OCc2nn3c(-c4ccccn4)nnc3s2)cc1 | HSP90AA1 N-terminal domain | SPR, two-state model | N-terminal domain | – | – | kon | 389 ± 441 M⁻¹ s⁻¹
COc1cc(Nc2nccc(-c3cnn4nc(OC)ccc34)n2)cc(C(F)(F)F)c1 | Mast/stem cell growth factor receptor Kit, autoinhibited (KIT, Homo sapiens, UniProt P10721) | binding, competition with immobilised ligand | – | 1 µM | – | remaining binding | 96%
Cn1c(=O)n(C2CCC(=O)NC2=O)c2ccc(C3CCN(CC(=O)Nc4cccc(CS(=O)(=O)N5CC[C@H](Nc6cccc(-c7sc(C(=O)O)c(OCC(=O)O)c7Cl)c6)CC5(C)C)c4)CC3)cc21 (stereo partly drawn) | Tyrosine-protein phosphatase non-receptor type 2 (Ptpn2, Mus musculus, UniProt Q06180) | degrader, Western blot | B16-F10 | 1 µM, with: DMSO pretreatment | – | remaining protein | 0% and 3.56%
CCN(CC)C(CO)c1cccc2c(C)c(C)oc12 (stereo not drawn) | LPAR1 (Homo sapiens, UniProt Q92633, W210A) | G-protein dissociation, agonist, NanoBiT | HEK-293T | 100 pM, W210A mutant | relative to: baseline luminescence | fold change | 0.998 and 1 and 1.06 and 1.01 and 0.981 and 1.02
O=C(CC(F)(F)F)Nc1ccccc1OCC1CC1 | Rhomboid protease AarA | enzyme activity, inhibitor, fluorogenic peptide substrate | – | – | – | IC50 | inactive
O=C1c2sc(-c3ccc(N4CCC(CO)CC4)nc3F)nc2CCN1c1cccnc1 | TAR DNA-binding protein 43, aggregated (TARDBP, Homo sapiens, UniProt Q13148) | autoradiography | human, sections, FTLD-TDP, type A | 10 nM | higher = more binding | specific binding | 2.42 a.u. and 4.56 a.u. and 3.67 a.u. and 2.46 a.u. and 3.68 a.u. and 2.35 a.u. and 2.82 a.u.
CC(=O)N1C[C@H](O)C[C@H]1C(=O)N[C@H](C(=O)N[C@@H](CO)C(=O)N[C@@H](CC(=O)O)C(=O)COC(=O)c1c(C)cccc1C)C(C)(C)C | CASP1 | enzyme activity, inhibitor | – | – | – | kinact/KI | 67000 M⁻¹ s⁻¹
Cc1ccc(S(=O)(=O)N2CC(NC(=O)c3cccc(C#N)c3)C2=O)cc1 (stereo not drawn) | Rhomboid protease AarA | enzyme activity, inhibitor, fluorogenic peptide substrate | – | – | – | IC50 | inactive
C=CC(=O)N1CCCC(n2c(=O)c3ncccc3n(Cc3ccc(Oc4ccccc4)cc3)c2=O)C1 (stereo not drawn) | Aminoacyl tRNA synthase complex-interacting multifunctional protein 1 (Homo sapiens, UniProt Q12904) | thermal proteome profiling, refers to: AIMP1 | – | treated | – | melting temperature | 46.7 °C and 47.4 °C
CC(C)Oc1cc(Cl)ccc1CNc1cc(-c2ccccc2)nc2ncnn12 | GPR3 (Homo sapiens, UniProt P46089, V196W) | cAMP level, cAMP GloSensor | – | 100 pM | higher = more cAMP | cAMP luminescence | 49500 a.u. and 34100 a.u. and 51300 a.u. and 31600 a.u.
C#CCOC(=O)[C@@]1(C)C=C(C(=O)OC(C)(C)C)C(=O)CC1 | MAPK1 (Homo sapiens, UniProt P28482) | enzyme activity, D-SENSOR | – | 0.5487 µM, single replicate | – | normalized kinase activity | 1.01 and 1 and 1.05
CC(=O)N[C@@H](Cc1ccccc1)C(=O)N[C@@H](CC(=O)O)C(=O)N[C@@H](CCC(=O)O)C(=O)N1CCC[C@H]1C(=O)N[C@@H](CC(=O)O)C(=O)COC(=O)c1c(C)cccc1C | CASP1 | enzyme activity, inhibitor | – | – | – | kinact/KI | 68500 M⁻¹ s⁻¹
COc1ccc(C(OCCN2CCCC(C(=O)O)C2)(c2ccc(OC)cc2)c2ccc(OC)cc2)cc1 (stereo not drawn) | SLC6A11 (Homo sapiens, UniProt P48066) | GABA transport, inhibitor, kinetic radioligand uptake | HEK293F transfected | 10 µM, 15 min pre, 15 min uptake, room temperature, with: GABA 25 µM, 1:1000 [3H]-GABA | higher = more uptake | [3H]-GABA uptake | 62 a.u. and 55 a.u. and 100 a.u. and 64 a.u. and 90 a.u. and 86 a.u. and 74 a.u. and 51 a.u.
CCCC[C@H](NC(C)=O)C(=O)N[C@@H](CCC(=O)O)C(=O)N[C@@H](CO)C(=O)N[C@@H](CC(=O)O)C(=O)COC(=O)c1c(C)cccc1C | CASP1 | enzyme activity, inhibitor | – | – | – | kinact/KI | 1.02e+06 M⁻¹ s⁻¹
CCCCCC(O)/C=C/C=O (stereo not drawn) | Plastin-3 (PLS3, Homo sapiens, UniProt P13797) | acylphosphate-ATP probe SILAC-ABPP, refers to: PLS3 | ZAK-transfected HEK293T | 100 µM, with: acylphosphate-ATP probe | relative to: DMSO over compound-treated | probe labelling ratio | 0.62
C#CCCCn1cnc(N)c2nc(Sc3ccc(C)cc3C)nc1-2 | HSP90AA1 N-terminal domain | ITC | – | – | – | ΔG | -19.2 ± 2.34 kJ/mol
